{"data": "Results collected from several papers", "note": "Protocols differ between the studies behind these lines."}
{"SMILES": "CCCCCCOc1ccc2c(=O)c3c([nH]c2c1)CCCC3", "assay": "metabolic stability", "test system": "mouse, liver microsomes", "setting": "1 µM, pH 7.4", "quantity": "microsomal CLint", "value": "117 µL/min/mg"}
{"SMILES": "COc1cccc(-c2n[nH]c(SCc3ccccn3)n2)c1OC", "test system": "male Sprague-Dawley rat, plasma", "setting": "oral, 10 mg/kg, 15 min, single dose", "quantity": "concentration", "value": "32500 ng/mL"}
{"SMILES": "CC(C)[N+](C)(CCOC(=O)C1c2ccccc2Oc2ccccc21)C(C)C", "assay": "metabolic stability", "test system": "human, plasma", "setting": "2 h", "quantity": "compound remaining", "value": "2.01%"}
{"SMILES": "COc1ccc(CNc2nc(-c3ccc(C(=O)O)cc3)nc3sc4ccccc4c23)cc1Cl", "quantity": "logP", "value": 7.47}
{"SMILES": "N=C(N)c1ccc(OCCS(=O)(=O)CCOc2ccc(C(=N)N)cc2)cc1", "assay": "haemolysis", "test system": "sheep", "setting": "200 µg/mL, 1 h", "quantity": "haemolysis", "value": "0.2%"}
{"SMILES": "O=C(c1ccc(F)cc1)C1CCN(CCn2c(=O)[nH]c3ccccc3c2=O)CC1", "assay": "metabolic stability, mass spectrometry", "test system": "human, liver microsomes", "setting": "5 min", "quantity": "compound remaining", "value": "91.5%"}
{"SMILES": "Cn1cc(-c2nc(N3CCC(c4ccccn4)C3)c3ccccc3n2)cn1 (centres unmarked)", "test system": "PAMPA", "setting": "10 µM, 3 h, pH 7.4", "quantity": "Papp", "value": "36.7 ×10⁻⁶ cm/s"}
{"SMILES": "COc1cc2c3c(n(CCCN4CCOCC4)c(=O)c2cc1OC)-c1cc2c(cc1C3=O)OCO2", "test system": "female beagle dog, plasma", "setting": "intravenous, 100 mg/m², infusion", "quantity": "AUC(0-inf)", "value": "2880 ng·h/mL"}
{"SMILES": "COc1ccc([C@@H](O)c2cc(-c3ncnc4cc(N5CCOCC5)ccc34)c(F)cc2Cl)nn1", "test system": "human, plasma", "setting": "oral, 100 mg, multiple doses, twice daily, patients", "quantity": "Cmax", "value": "693 ng/mL"}
{"SMILES": "Cn1nc2c(=O)n(C3CC3)ncc2c1[C@](N)(c1ccc(C(F)(F)F)c(Cl)c1)C1CC1", "assay": "metabolic stability", "test system": "male Sprague-Dawley rat, hepatocytes", "setting": "0.5 µM, pH 7.4", "quantity": "hepatocyte CLint", "value": "0.6 µL/min/10⁶ cells"}
{"SMILES": "CCOC(=O)[C@@]12C[C@@H]1[C@@H](n1ccc3c(NC)nc(C#Cc4ccc(Cl)s4)nc31)[C@H](O)[C@@H]2O", "test system": "male Sprague-Dawley rat, plasma", "setting": "oral, 3 mg/kg", "quantity": "Tmax", "value": "0.83 h"}
{"SMILES": "Fc1ccccc1-c1nc(N2CCC(c3ccccn3)C2)c2ccccc2n1 (centres unmarked)", "assay": "metabolic stability", "test system": "mouse, liver microsomes", "quantity": "microsomal CLint", "value": "688 µL/min/mg"}
{"SMILES": "Cn1nc2c(=O)n(C3CC3)ccc2c1[C@](O)(c1cnc(C(F)(F)F)c(Cl)c1)C1CC1", "assay": "metabolic stability", "test system": "male Sprague-Dawley rat, hepatocytes", "setting": "0.5 µM, pH 7.4", "quantity": "hepatocyte CLint", "value": "< 1 µL/min/10⁶ cells"}
{"SMILES": "c1ccc(-c2nc(N3CCC(c4ccccn4)C3)c3ccccc3n2)cc1 (centres unmarked)", "assay": "metabolic stability", "test system": "mouse, liver microsomes", "quantity": "microsomal CLint", "value": "604 µL/min/mg"}
{"SMILES": "NCc1cc2c(cc1F)C(=O)N(C1CCC(=O)NC1=O)C2 (centres unmarked)", "test system": "male CD-1 mouse, plasma", "setting": "oral, 10 mg/kg, 2 h", "quantity": "concentration", "value": "50.3 ng/mL"}
{"SMILES": "CCn1cnc2c(N3CCC(c4ccccn4)C3)nc(-c3ccccn3)nc21 (centres unmarked)", "assay": "metabolic stability", "test system": "mouse, liver microsomes", "quantity": "microsomal CLint", "value": "44 µL/min/mg"}
{"SMILES": "Cc1[nH]c(C)c(S(=O)(=O)Nc2ccc(C(F)(F)F)c(Cl)c2)c1C(=O)N1CCC(F)(F)C1", "test system": "male CD-1 mouse, plasma", "setting": "intraperitoneal, 40 mg/kg", "quantity": "Cmax", "value": "13700 ng/g"}
{"SMILES": "COc1ccc2c(=O)n(C)c(-c3ccccc3)nc2c1", "test system": "male Sprague-Dawley rat, plasma", "setting": "oral, 30 mg/kg, 4 h", "quantity": "concentration", "value": "5.95 ng/mL"}
{"SMILES": "Cn1nc2c(=O)n(C3CC3)ccc2c1[C@](O)(c1ccc(C(F)(F)F)nc1)C1CC1", "assay": "metabolic stability", "test system": "male Sprague-Dawley rat, hepatocytes", "setting": "0.5 µM, pH 7.4", "quantity": "hepatocyte CLint", "value": "2.3 µL/min/10⁶ cells"}
{"SMILES": "Cc1nc(-c2cnc(NC(C)C)n(C)c2=O)ccc1Oc1ccnc(-c2cnn(C)c2)c1", "test system": "male beagle dog, plasma", "setting": "oral, 30 mg/kg", "quantity": "AUC(0-t)", "value": "50800 ng·h/mL"}
{"SMILES": "O=C(COc1ccc(Cl)cc1)NC12CC(c3nnc([C@H]4C[C@@H](OC(F)(F)F)C4)o3)(C1)C2", "test system": "human, plasma", "setting": "oral, 15 mg, single dose, fasted, healthy volunteers", "quantity": "half-life", "value": "31.7 h"}
{"SMILES": "N=C(N)c1ccc(OCc2cc(COc3ccc(C(=N)N)cc3)cc(-c3ccccc3)c2)cc1", "assay": "haemolysis", "test system": "sheep", "setting": "200 µg/mL, 1 h", "quantity": "haemolysis", "value": "32%"}
{"SMILES": "O=C(N1CCCCC1)C12CC(c3ccccc3)(C1)C2", "assay": "metabolic stability", "test system": "human, liver microsomes", "setting": "2 µM, 15 min, pH 7.4", "quantity": "compound remaining", "value": "95%"}
{"SMILES": "COc1cc(OC)c2nccc(N3CCc4c(cc(Cn5ccnc5)cc4-c4cn(C)nc4C(F)(F)F)C3=O)c2c1", "test system": "male CD-1 mouse, plasma", "setting": "oral, 50 mg/kg", "quantity": "MRT(0-inf)", "value": "2 h"}
{"SMILES": "CCN1CCN(Cc2ccc(NC(=O)c3ccc(C)c(NC(=O)c4cncc(-c5cccs5)c4)c3)cc2C(F)(F)F)CC1", "test system": "mouse, plasma", "setting": "intraperitoneal, 10 mg/kg, single dose", "quantity": "AUC(0-inf)", "value": "1210 ng·h/mL"}
{"SMILES": "O=C1CC[C@H](N2Cc3cc(N4CCN(CC5CCN(c6ccc([C@@H]7c8ccc(O)cc8CC[C@@H]7c7ccccc7)cc6)CC5)CC4)ccc3C2=O)C(=O)N1", "test system": "female Sprague-Dawley rat, plasma", "setting": "oral, 20 mg/kg, fed", "quantity": "AUC(0-inf)", "value": "18400 ng·h/mL"}
{"SMILES": "N#Cc1cccc(-c2ccc3ncc(-c4cc(F)cc(F)c4)c(N4CCC(N)CC4)c3c2)c1O", "test system": "male human, plasma", "setting": "oral, 20 mg, single dose", "quantity": "Vd/F", "value": "310 L"}
{"SMILES": "COc1cc(C2C3=C(COC3=O)N(CCO)c3cc4c(cc32)CCC4)cc(OC)c1OC (centres unmarked)", "test system": "female Sprague-Dawley rat, plasma", "setting": "intraperitoneal, 50 mg/kg", "quantity": "Tmax", "value": "0.25 h"}
{"SMILES": "N=C(N)c1cccc(OCc2ccc(COc3cccc(C(=N)N)c3)cc2)c1", "assay": "haemolysis", "test system": "sheep", "setting": "200 µg/mL, 1 h", "quantity": "haemolysis", "value": "0%"}
{"SMILES": "COCC(=O)N1CCC[C@H](C(=O)NCc2nc(-c3ccc(C#N)cc3)cs2)C1", "assay": "metabolic stability", "test system": "male Sprague-Dawley rat, liver microsomes", "setting": "0.5 µM", "quantity": "microsomal CLint", "value": "17 µL/min/mg"}
{"SMILES": "N#C[C@@]12C[C@@H]1[C@@H](n1cnc3c(N[C@@H](C4CCC4)C4CC4)nc(I)nc31)[C@H](O)[C@@H]2O", "test system": "male Wistar rat, plasma", "setting": "oral, 3 mg/kg", "quantity": "MRT(0-t)", "value": "1.75 h"}
{"SMILES": "N=C(N)c1ccccc1OCc1ccc(COc2ccccc2C(=N)N)cc1", "assay": "haemolysis", "test system": "sheep", "setting": "200 µg/mL, 1 h", "quantity": "haemolysis", "value": "0%"}
{"SMILES": "c1ccc(-c2nc(N3CCCC3)c3ccccc3n2)nc1", "test system": "PAMPA", "setting": "10 µM, 3 h, pH 7.4", "quantity": "Papp", "value": "27.9 ×10⁻⁶ cm/s"}
{"SMILES": "COc1ccc2c(c1)CN(C(=O)CCN1CCC(Cc3ccccc3)CC1)CC[S@@+]2[O-]", "test system": "male human, plasma", "setting": "intravenous, 0.4 mg/kg, single dose, healthy volunteers", "quantity": "half-life", "value": "4.48 h"}
{"SMILES": "CC[C@@](N)(c1cnc(C(F)(F)F)c(Cl)c1)c1c2ccn(C3CC3)c(=O)c2nn1C", "assay": "metabolic stability", "test system": "human, hepatocytes", "setting": "0.5 µM, pH 7.4", "quantity": "hepatocyte CLint", "value": "0.8 µL/min/10⁶ cells"}
{"SMILES": "c1ccc(-c2nc(NCCn3cnc4ccccc43)c3ccccc3n2)nc1", "test system": "PAMPA", "setting": "10 µM, 3 h, pH 7.4", "quantity": "Papp", "value": "24.2 ×10⁻⁶ cm/s"}
{"SMILES": "CCOCC(=O)N1CCC[C@H](C(=O)NCc2nc(-c3ccc(C#N)nc3)cs2)C1", "assay": "metabolic stability", "test system": "human, liver microsomes", "setting": "0.5 µM", "quantity": "scaled CLint", "value": "12 mL/min/kg"}
{"SMILES": "CC(C)(O)c1ccccc1CC[C@@H](SCC1(CC(=O)O)CC1)c1cccc(/C=C/c2ccc3ccc(Cl)cc3n2)c1", "assay": "metabolic stability", "test system": "human, hepatocytes", "setting": "0.5 µM, pH 7.4", "quantity": "hepatocyte CLint", "value": "11.4 µL/min/10⁶ cells"}
